Results pooled from the literature.
Each line is one published result; not all experiments were run side by side. ± gives the spread as reported.
POLB: DNA polymerase beta (POLB, Homo sapiens, UniProt P06746)
SCTR: Secretin receptor (SCTR, Homo sapiens, UniProt P47872)
Chain of UniProt P47872 (whole entry, looked up): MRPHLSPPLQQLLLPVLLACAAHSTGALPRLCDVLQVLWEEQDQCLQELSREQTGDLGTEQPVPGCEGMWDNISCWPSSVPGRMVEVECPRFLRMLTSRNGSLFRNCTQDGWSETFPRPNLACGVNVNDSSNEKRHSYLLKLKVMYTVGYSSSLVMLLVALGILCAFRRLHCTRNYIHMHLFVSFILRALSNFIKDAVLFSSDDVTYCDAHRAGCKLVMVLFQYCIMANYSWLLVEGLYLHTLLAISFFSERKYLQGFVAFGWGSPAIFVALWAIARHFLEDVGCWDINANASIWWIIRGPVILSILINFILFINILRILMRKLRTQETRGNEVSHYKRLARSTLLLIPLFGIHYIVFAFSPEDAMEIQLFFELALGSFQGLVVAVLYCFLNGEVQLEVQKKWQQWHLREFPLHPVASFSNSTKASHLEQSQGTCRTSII
Chain of UniProt Q9HAW9 (whole entry, looked up): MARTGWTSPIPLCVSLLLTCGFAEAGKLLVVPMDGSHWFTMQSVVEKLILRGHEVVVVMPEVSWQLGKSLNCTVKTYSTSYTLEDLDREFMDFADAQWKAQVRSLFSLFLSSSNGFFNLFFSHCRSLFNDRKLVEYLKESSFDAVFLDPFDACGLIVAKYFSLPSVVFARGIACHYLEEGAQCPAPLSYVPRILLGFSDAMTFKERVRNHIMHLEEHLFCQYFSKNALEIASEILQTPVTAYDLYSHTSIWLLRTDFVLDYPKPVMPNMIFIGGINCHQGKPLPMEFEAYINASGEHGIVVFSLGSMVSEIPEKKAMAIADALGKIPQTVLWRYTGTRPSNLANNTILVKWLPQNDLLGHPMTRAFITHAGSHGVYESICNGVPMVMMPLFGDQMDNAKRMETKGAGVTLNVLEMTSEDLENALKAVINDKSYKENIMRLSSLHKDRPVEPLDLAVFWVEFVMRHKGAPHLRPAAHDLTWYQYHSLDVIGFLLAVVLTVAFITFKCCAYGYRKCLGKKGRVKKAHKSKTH
Chain of UniProt Q9HBW0 (whole entry, looked up): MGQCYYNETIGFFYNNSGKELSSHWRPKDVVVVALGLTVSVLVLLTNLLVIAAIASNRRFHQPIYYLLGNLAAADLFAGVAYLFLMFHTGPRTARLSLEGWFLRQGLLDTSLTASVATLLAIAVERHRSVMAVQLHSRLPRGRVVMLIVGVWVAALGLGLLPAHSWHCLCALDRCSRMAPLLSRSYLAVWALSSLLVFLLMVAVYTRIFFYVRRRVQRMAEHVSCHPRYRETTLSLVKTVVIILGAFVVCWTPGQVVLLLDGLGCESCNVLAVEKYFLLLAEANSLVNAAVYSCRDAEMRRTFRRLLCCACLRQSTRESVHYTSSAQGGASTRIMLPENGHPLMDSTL
Chain of UniProt Q7L0J3 (whole entry, looked up): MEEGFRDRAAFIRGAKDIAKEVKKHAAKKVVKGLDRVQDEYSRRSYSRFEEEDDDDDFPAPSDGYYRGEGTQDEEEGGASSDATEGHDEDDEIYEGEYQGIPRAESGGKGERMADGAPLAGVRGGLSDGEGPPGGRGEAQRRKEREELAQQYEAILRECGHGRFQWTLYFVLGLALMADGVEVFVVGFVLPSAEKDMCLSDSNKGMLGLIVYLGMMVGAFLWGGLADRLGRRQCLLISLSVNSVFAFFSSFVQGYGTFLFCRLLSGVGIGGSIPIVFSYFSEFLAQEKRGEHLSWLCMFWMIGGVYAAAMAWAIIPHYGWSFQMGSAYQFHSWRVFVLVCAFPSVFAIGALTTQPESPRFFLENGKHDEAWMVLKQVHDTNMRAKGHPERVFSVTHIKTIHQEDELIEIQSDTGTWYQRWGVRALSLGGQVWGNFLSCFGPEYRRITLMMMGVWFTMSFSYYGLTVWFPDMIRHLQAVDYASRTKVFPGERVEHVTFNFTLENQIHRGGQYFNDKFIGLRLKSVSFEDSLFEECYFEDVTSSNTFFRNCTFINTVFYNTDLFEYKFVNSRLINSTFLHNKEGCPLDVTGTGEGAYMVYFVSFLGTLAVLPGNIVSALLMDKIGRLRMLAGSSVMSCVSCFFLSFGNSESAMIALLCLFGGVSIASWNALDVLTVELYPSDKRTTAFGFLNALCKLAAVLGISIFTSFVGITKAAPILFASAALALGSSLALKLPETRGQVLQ
Chain of UniProt P24468 (whole entry, looked up): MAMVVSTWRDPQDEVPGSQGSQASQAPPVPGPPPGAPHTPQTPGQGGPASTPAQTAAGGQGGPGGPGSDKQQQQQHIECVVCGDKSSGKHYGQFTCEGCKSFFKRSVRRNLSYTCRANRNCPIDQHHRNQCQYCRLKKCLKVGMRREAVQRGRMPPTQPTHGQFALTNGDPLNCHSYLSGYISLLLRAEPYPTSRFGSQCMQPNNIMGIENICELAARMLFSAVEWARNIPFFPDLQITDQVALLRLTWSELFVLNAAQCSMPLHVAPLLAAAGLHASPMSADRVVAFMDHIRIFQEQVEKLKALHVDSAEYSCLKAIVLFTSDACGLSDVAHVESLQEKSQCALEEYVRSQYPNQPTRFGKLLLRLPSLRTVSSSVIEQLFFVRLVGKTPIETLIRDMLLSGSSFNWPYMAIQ
Chain of UniProt P35968 (whole entry, looked up): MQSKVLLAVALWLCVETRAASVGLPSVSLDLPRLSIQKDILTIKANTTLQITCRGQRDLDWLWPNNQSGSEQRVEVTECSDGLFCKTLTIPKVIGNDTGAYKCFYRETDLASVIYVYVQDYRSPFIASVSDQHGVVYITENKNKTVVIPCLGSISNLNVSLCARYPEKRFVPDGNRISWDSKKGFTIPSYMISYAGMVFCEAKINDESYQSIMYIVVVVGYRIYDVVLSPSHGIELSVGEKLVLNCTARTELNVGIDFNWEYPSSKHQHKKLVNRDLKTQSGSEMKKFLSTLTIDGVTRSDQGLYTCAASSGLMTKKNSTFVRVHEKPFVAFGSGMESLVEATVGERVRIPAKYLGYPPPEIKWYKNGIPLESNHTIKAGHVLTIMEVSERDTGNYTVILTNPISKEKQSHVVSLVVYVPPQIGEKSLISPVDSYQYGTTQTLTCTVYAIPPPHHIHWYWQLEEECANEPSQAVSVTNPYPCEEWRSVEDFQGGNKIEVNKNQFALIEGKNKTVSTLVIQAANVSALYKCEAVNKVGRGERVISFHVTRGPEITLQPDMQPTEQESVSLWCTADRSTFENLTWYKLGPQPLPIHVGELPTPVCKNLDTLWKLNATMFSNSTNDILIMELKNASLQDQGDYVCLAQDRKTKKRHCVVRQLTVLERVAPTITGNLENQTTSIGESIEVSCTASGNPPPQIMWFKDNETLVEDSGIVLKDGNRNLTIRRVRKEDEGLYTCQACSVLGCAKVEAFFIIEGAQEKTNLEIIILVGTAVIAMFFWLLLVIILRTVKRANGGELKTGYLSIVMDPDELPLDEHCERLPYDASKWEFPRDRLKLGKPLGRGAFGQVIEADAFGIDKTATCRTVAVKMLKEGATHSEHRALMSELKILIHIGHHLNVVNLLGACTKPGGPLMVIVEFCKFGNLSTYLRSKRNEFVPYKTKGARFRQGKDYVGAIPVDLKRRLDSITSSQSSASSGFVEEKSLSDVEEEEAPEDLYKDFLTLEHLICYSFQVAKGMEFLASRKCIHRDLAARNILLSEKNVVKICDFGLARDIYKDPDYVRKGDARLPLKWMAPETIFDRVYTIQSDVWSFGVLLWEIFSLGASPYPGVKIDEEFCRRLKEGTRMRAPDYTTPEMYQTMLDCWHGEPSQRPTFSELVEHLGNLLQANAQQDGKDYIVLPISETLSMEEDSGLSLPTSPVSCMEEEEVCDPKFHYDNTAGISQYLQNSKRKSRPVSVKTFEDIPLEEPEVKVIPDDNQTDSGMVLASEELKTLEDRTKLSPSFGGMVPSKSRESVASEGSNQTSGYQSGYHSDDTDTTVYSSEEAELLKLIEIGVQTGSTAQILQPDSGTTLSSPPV
Chain of UniProt P63073 (28-217, looked up): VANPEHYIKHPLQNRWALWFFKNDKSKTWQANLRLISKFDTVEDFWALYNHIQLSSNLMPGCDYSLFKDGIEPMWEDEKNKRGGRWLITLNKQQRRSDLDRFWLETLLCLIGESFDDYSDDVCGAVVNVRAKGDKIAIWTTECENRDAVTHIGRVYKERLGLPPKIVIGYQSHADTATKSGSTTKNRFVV
Chain of UniProt P07550 (whole entry, looked up): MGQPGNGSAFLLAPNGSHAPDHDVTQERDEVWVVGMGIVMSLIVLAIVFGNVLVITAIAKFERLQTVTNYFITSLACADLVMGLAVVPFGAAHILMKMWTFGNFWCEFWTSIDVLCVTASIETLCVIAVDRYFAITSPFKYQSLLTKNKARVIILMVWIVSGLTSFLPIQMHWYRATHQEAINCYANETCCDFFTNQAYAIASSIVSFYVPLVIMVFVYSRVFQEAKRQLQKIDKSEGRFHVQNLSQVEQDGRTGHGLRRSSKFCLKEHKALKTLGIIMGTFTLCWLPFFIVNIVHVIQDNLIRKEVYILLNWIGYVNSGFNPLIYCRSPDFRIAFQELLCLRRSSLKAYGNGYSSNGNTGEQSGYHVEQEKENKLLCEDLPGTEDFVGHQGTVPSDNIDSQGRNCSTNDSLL
Chain of UniProt P31941 (whole entry, looked up): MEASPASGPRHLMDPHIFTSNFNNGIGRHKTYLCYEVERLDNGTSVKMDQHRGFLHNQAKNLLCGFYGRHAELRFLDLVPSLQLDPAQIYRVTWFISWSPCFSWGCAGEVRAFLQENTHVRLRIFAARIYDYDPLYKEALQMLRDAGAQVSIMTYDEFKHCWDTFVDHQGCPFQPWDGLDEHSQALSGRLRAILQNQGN

Fc1ccc(Nc2nc(NC3CCCCC3)c3ccccc3n2)cc1F  isoprenaline dose-response, cAMP (ADRB2 (Homo sapiens, UniProt P07550); cAMP ELISA; HEK293, stably expressing target; up to 10 µM): no effect
CN(CC(=O)c1ccc2[nH]c(=O)[nH]c2c1)Cc1ccco1  remaining activity (DNA dC->dU-editing enzyme APOBEC-3A (Homo sapiens, UniProt P31941); deaminase activity, inhibitor, alkaline cleavage; purified, expressed in 293T; 700 µM): 5%
Cc1cn(C2CC(O)C(COP(=O)(O)OP(=O)(O)C(Cl)P(=O)(O)O)O2)c(=O)[nH]c1=O (mixture of isomers)  kpol (DNA polymerase beta (POLB, Homo sapiens, UniProt P06746, I260M); nucleotide incorporation rate, substrate, single-turnover kinetics; single-nucleotide gapped DNA; 37 °C, I260M, correct incorporation, with: dTTP opposite template A): 3.2 ± 0.3 s⁻¹
Cc1cc(=O)oc2c(F)c(OP(=O)(O)O)c(F)cc12  Km (PTPN11 (Homo sapiens, UniProt Q06124); enzyme activity, substrate): 108 µM
Cc1cn(C2CC(O)C(COP(=O)(O)OP(=O)(O)C(F)P(=O)(O)O)O2)c(=O)[nH]c1=O (mixture of isomers)  kpol (POLB; nucleotide incorporation rate, substrate, single-turnover kinetics; single-nucleotide gapped DNA; 37 °C, wild type, correct incorporation, with: dTTP opposite template A): 18.3 ± 1.1 s⁻¹
COc1ccccc1-c1cc(C(F)(F)F)nc(S(=O)(=O)CCCC(=O)Nc2ccn(Cc3ccc(C)cc3)n2)n1  Emax (SCTR; cAMP accumulation, positive allosteric modulator; CHO-K1 overexpressing SCTR; with: EC10-EC20 secretin peptide mix; reference: EC95 peptide mix): 42 ± 12%
Nc1nc2c(ncn2[C@H]2C[C@H](O)[C@@H](COP(=O)(O)OP(=O)(O)[C@H](F)P(=O)(O)O)O2)c(=O)[nH]1  stereoselectivity ratio (POLB; substrate; opposite dC; reference: R over S): 3
O=C(O)[C@H]1O[C@@H](O[C@H]2C=Cc3c(cc4ccc5cccc6c7ccccc7c3c4c56)[C@@H]2O)[C@H](O)[C@@H](O)[C@@H]1O  kcat/Km (UGT1A8 (Homo sapiens, UniProt Q9HAW9); glucuronidation, substrate; UGT-expressing HEK293 homogenate; normalized to UGT expression): < 0.0167 M⁻¹ s⁻¹
CS(=O)(=O)CCC1NC(=O)C(Cc2ccco2)NC(=O)C(CC2CC2)NC(=O)C=CC(=O)NC(C(N)=O)CCNC1=O (centres unmarked)  enrichment factor (KDR (Homo sapiens, UniProt P35968); DNA-templated library selection; one selection round): 0.66
BP(=O)(OC[C@H]1O[C@@H](n2cnc3c(=O)[nH]c(N)nc32)[C@H](O)[C@@H]1O)OP(=O)([O-])OP(=O)(O)OC[C@H]1O[C@@H](n2c[n+](C)c3c(O)nc(N)nc32)[C@H](O)[C@@H]1O (some centres unmarked)  association constant (Eukaryotic translation initiation factor 4E, residues 28-217 (Eif4e, Mus musculus, UniProt P63073); cap binding, fluorescence quenching titration; pH 7.2, 20 °C): 14.5 ± 0.2 µM⁻¹
[3H]C([3H])([3H])c1cnccc1CN1C[C@@H](c2cc(F)c(F)c(F)c2)CC1=O  specific binding ratio (SV2A (Homo sapiens, UniProt Q7L0J3); radioligand binding; human control, frontal cortex; reference: P2 fraction over homogenate): ~73 fold
COc1ccc(CCNc2ncnc3sc(C)cc23)cc1OC  protein level (NR2F2 (Homo sapiens, UniProt P24468); western blot; LNCaP; concentration not given, 18 h): no effect
COc1ccc(-c2cc(C(F)(F)F)nc(SCC(=O)N(C)c3ccccc3)n2)cc1OC  Emax (SCTR; cAMP accumulation, positive allosteric modulator; CHO-K1 overexpressing SCTR; with: EC10-EC20 secretin peptide mix; reference: EC95 peptide mix): 47 ± 16%
CCCCCCCC/C=C\CCCCCCCC(=O)O[C@H]1CCCO[C@H]1COP(=O)(O)S (some centres unmarked)  Emax (LPAR2 (Homo sapiens, UniProt Q9HBW0); agonist, TGFα shedding): 74%

Some of these lines once more:
Fc1ccc(Nc2nc(NC3CCCCC3)c3ccccc3n2)cc1F  isoprenaline dose-response, cAMP (ADRB2 (Homo sapiens, UniProt P07550); cAMP ELISA; HEK293, stably expressing target; up to 10 µM): no effect
CN(CC(=O)c1ccc2[nH]c(=O)[nH]c2c1)Cc1ccco1  remaining activity (DNA dC->dU-editing enzyme APOBEC-3A (Homo sapiens, UniProt P31941); deaminase activity, inhibitor, alkaline cleavage; purified, expressed in 293T; 700 µM): 5%
